Measurements from different studies.
A part holds a random share of what one study measured. Several values in a cell are separate wells, animals, samples, runs or records.

Block 1
Structure (SMILES): Cc1ncsc1-c1ccc(C(CO)NC(=O)C2CC(O)CN2C(=O)C(C(C)C)n2cc(-c3ccc(COc4c(-c5c(C)c(F)cc6[nH]ncc56)c(C5CC5)cc5c(N6CC7CC6CN7)nc(OC6CCOCC6)nc45)cc3)nn2)cc1 (centres unmarked)
Route: intravenous
system	setting	concentration
mouse (PK-59 xenograft), tumor	10 mg/kg, 48 h	299 ng/g
mouse, PK-59 xenograft, tumor	10 mg/kg, 48 h	345 ng/g and 234 ng/g
mouse (PK-59 xenograft), pancreas	30 mg/kg, 144 h	30.3 ng/g
mouse (PK-59 xenograft), tumor	10 mg/kg, 72 h	137 ng/g
male Balb/c nu/nu mouse, PK-59 xenograft, tumor	10 mg/kg, 2 h	394 ng/g and 306 ng/g
mouse (PK-59 xenograft), tumor	30 mg/kg, 72 h	842 ng/g
male Balb/c nu/nu mouse (PK-59 xenograft), pancreas	30 mg/kg, 24 h	437 ng/g
male Balb/c nu/nu mouse, PK-59 xenograft, plasma	30 mg/kg, 144 h	1.38 ng/mL and 1.88 ng/mL and 3.48 ng/mL

Block 2
SMILES: CCN(CC)CC(=O)N1CCN(c2nc(NCc3nc4cc(Cl)c(Cl)cc4[nH]3)c3ncn(CC)c3n2)CC1
Effect on: cell viability
Technique: CellCounting-Lite
Temperature: 37 °C
Reading: higher = more viable cells
cell line	setting	luminescence signal
MDA-MB-468	31.25 nM	10300 a.u. and 10400 a.u. and 10100 a.u.
MDA-MB-231	7.812 nM	9360 a.u. and 8320 a.u. and 8000 a.u.
MDA-MB-231	0.03052 nM	474000 a.u. and 447000 a.u. and 458000 a.u.
MDA-MB-231	125 nM	6760 a.u. and 6540 a.u. and 7910 a.u.
MDA-MB-468	0.4883 nM	35700 a.u. and 37800 a.u. and 40300 a.u.
MDA-MB-231	1.953 nM	69700 a.u. and 71800 a.u. and 63500 a.u.

Block 3
Structure (SMILES): C[C@@H]1CN(c2ccc(-c3cc(C(=O)NCCOCCOCCOCCOCCNC(=O)/C=C/c4[nH]cc(C(=O)N[C@@H](CC(N)=O)c5ccc(F)c(Cl)c5)c4-c4ccc(Cl)cc4F)ccc3F)cc2NC(=O)c2c[nH]c(=O)cc2C(F)(F)F)C[C@H](C)N1C
Effect on: thermal unfolding
Technique: differential scanning fluorimetry
Concentration: 5.5 µM
Reading: higher = more unfolded
WDR5: WD repeat-containing protein 5 (WDR5, Homo sapiens, UniProt P61964)
DCAF1: DDB1- and CUL4-associated factor 1 (DCAF1, Homo sapiens, UniProt Q9Y4B6)
Chain of UniProt Q9Y4B6 (whole entry, looked up): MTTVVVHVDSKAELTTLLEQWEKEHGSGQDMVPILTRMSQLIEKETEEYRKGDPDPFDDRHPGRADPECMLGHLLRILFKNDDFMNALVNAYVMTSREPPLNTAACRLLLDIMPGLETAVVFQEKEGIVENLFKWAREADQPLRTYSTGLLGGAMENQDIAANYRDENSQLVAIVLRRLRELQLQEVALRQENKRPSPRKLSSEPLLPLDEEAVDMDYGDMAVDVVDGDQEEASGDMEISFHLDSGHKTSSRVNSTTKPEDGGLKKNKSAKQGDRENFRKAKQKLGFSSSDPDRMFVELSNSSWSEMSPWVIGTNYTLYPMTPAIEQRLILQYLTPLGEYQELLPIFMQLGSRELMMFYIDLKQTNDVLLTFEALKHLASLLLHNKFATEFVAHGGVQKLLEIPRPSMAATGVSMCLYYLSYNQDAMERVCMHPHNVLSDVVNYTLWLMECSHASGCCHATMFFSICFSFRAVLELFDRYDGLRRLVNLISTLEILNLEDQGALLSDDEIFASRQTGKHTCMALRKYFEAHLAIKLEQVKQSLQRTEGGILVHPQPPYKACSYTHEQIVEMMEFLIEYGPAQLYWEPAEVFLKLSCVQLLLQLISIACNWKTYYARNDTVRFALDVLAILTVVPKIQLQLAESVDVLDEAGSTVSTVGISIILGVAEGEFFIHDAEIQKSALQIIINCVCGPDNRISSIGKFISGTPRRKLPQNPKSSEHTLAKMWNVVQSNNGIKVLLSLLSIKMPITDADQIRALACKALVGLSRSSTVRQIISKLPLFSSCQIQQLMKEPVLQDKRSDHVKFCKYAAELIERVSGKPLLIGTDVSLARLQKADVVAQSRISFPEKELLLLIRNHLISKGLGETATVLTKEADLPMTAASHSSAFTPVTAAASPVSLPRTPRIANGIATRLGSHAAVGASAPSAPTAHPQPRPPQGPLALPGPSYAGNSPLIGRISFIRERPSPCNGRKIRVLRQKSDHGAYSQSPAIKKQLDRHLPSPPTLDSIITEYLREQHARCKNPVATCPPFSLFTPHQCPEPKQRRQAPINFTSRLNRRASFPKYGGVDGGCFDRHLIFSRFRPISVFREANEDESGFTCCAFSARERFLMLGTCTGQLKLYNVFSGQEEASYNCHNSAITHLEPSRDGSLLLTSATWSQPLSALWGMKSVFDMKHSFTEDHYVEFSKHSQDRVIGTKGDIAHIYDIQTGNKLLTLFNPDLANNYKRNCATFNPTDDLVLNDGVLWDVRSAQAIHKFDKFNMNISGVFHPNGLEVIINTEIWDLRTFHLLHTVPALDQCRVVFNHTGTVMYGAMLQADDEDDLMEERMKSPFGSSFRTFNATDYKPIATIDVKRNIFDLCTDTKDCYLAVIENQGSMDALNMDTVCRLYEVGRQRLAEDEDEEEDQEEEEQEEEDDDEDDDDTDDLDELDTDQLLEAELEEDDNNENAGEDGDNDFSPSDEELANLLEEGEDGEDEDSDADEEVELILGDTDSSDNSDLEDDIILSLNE
target	setting	SYPRO Orange fluorescence [a.u.]
WDR5	80.61 °C	42200
DCAF1	72.81 °C	52400
WDR5	86.01 °C	53300
DCAF1	76.61 °C	48300
DCAF1	68.41 °C	57600
WDR5	40.2 °C	13800
WDR5	50.8 °C	16600
WDR5	49 °C	16100
WDR5	48 °C	15900
DCAF1	32.2 °C	9740
DCAF1	26 °C	8950

Further values, each from its own experiment
PKMYT1: Membrane-associated tyrosine- and threonine-specific cdc2-inhibitory kinase (PKMYT1, Homo sapiens, UniProt Q99640)
Chain of UniProt Q99640 (whole entry, looked up): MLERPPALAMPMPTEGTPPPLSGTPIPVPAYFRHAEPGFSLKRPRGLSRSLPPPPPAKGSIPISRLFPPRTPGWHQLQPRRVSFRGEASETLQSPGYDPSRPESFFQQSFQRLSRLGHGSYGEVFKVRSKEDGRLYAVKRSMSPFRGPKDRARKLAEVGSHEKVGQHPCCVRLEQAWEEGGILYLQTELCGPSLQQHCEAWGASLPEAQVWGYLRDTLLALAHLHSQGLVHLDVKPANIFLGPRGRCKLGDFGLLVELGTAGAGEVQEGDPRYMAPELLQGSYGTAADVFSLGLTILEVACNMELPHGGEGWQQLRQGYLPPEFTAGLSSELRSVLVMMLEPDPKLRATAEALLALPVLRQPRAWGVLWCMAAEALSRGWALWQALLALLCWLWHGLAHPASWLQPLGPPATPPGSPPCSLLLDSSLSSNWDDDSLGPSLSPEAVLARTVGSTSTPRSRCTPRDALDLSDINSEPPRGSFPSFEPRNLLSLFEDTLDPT
SMILES	tested on	test	system	setting	how to read	measurement	value
Cc1ccc(O)c(C)c1-c1cnc2[nH]c(-c3cnc(N4CCC5(CC4)CC(N4CCN(c6ccc(N[C@H]7CCC(=O)NC7=O)cc6F)CC4)CO5)nc3)cc2c1C#N (single isomer, unassigned)	PKMYT1	degrader, automated immunoblot	HCC1569	10 nM	–	degradation	78.3% and 79.1% and 79%
Cc1ccc(O)c(C)c1-c1cnc2[nH]c(-c3cnc(N4CCC(CCN5CCN(c6cc7c(cc6F)c(N6CCC(=O)NC6=O)nn7C)CC5)CC4)nc3)cc2c1C#N	PKMYT1	binding, HTRF	–	333.33 nM	–	inhibition	99.3% and 99.4%
Cc1ccc(O)c(C)c1-c1cnc2[nH]c(-c3cnc(N4CCC5(CC4)CC(N4CCN(c6cc7c(cc6F)c(N6CCC(=O)NC6=O)nn7C)CC4)CO5)nc3)cc2c1C#N (racemic)	PKMYT1	degrader, automated immunoblot (Jess)	–	1 nM	baseline: GAPDH	protein level	65.1%
Cc1ccc(O)c(C)c1-c1cnc2[nH]c(-c3cnc(N4CCC(CN5CCN(c6ccc7c(c6)C(=O)N(C6CCC(=O)NC6=O)C7=O)CC5)CC4)nc3)cc2c1C#N (centres unmarked)	–	–	CD-1 mouse, female, fasted, plasma	oral, 10 mg/kg	–	AUC(0-24h)	1090 ng·h/mL

A few entries again (block 2):
cell line	setting	luminescence signal
MDA-MB-231	0.03052 nM	474000 a.u. and 447000 a.u. and 458000 a.u.
MDA-MB-231	1.953 nM	69700 a.u. and 71800 a.u. and 63500 a.u.
